# Published values pooled from the literature.
# Each line is one published result; not all experiments were run side by side. ± gives the spread as reported.
SMILES,assay,test system,setting,clearance
CCCc1cc(C(=O)OC)c(NC(=O)C2CCN(C(C)=O)CC2)s1,,"CD1 mouse, male, plasma","intravenous, 1 mg/kg",438 ± 37 mL/min/kg
O=c1c2cc(Cl)c(CO)cc2[nH]c(=S)n1Cc1cccnc1,,"mouse, plasma",intravenous,34.8 mL/min/kg
CC[C@H](C)[C@@H]1NC(=O)[C@@](C)(NC(=O)[C@H](CCCNC(=N)N)NC(=O)[C@H](CC(C)C)NC(=O)[C@@H](NC(=O)[C@H](CCC(N)=O)NC(=O)[C@H](CC(C)C)NC(C)=O)[C@@H](C)O)CCCC=CCCC[C@@](C)(C(=O)N[C@@H](CC(C)C)C(=O)N[C@@H](Cc2ccc3ccccc3c2)C(N)=O)NC(=O)[C@H](CCCNC(=N)N)NC(=O)[C@H](CCC(N)=O)NC1=O,,"BALB/c mouse, plasma","ip, 5 mg/kg",1 mL/min/kg
OCc1ccc(-c2nn(Cc3ccccc3)c3ccccc23)o1,,"male CD1 mouse, plasma","intravenous, 5 mg/kg",77.9 mL/min/kg
CCOC(=O)C1=C(CN2CCC[C@@H]2C(=O)Nc2ccc(B(O)O)cc2)NC(c2nccs2)=N[C@H]1c1ccc(F)cc1Br,,"ICR mouse, plasma","intravenous, 2 mg/kg",46.8 ± 6.63 mL/min/kg
CC(=O)N(C)C1CCN(c2cc(F)cc(NC(=O)c3cc4c(F)ccc(C)c4[nH]3)c2)C1 (centres unmarked),,CD1 mouse,"intravenous, 1 mg/kg",24.2 mL/min/kg
COc1ccc(C(O)COc2ccc(-c3csc(-c4ccc(OCC(O)c5ccc(OC)c(OC)c5)cc4)n3)cc2)cc1OC (centres unmarked),,"mouse C57BL/6J, plasma","intravenous, 3 mg/kg",10.5 mL/min/kg
C=CC(=O)Nc1cc(Nc2nccc(Nc3cc(Cl)c(F)cc3C(C)(C)O)n2)c(OC)cc1N1CC[C@@H](N(C)C)C1,two-compartment PK model,mouse,,7.33 mL/min
C=C1CN2CCC[C@@]2(COc2nc(N3CCN(C(=O)/C=C/c4cccc5c4CNCC5)C[C@@H]3C)c3cc(Cl)c(-c4nc(N)cc(C)c4C(F)(F)F)c(F)c3n2)C1,,"female CD-1 mouse, whole blood","intravenous, 1 mg/kg, DMSO 10%, PEG400 35%, water 55%",3.4 mL/min/kg
C=CC(=O)Nc1cc(Nc2ncc(C(=O)OC(C)C)c(-c3cn(C)c4ccccc34)n2)c(OC)cc1N(C)CCN(C)C,two-compartment PK model,mouse,,443 mL/min
C=CC(=O)Nc1cc(Nc2nccc(-c3c[nH]c4ccccc34)n2)c(OC)cc1N(C)CCN(C)C,,"NSG mouse, plasma","population PK model, added: ABT",73.2 mL/min/kg
CN(C)c1ccc(Nc2nc(-c3ccncc3)nc3c2CC(N)CC3)cc1 (centres unmarked),,"male C57BL/6J mouse, plasma","intraperitoneal, 10 mg/kg",120 mL/min/kg
NCc1ccc(-c2nn(Cc3ccccc3)c3ccccc23)o1,,"male CD1 mouse, plasma","intravenous, 5 mg/kg",67.1 mL/min/kg
C[C@@H]1CN(Cc2ncccn2)C[C@H]1c1nc2c(cnn2C2CCOCC2)c(=O)[nH]1,,"mouse, blood","intravenous, 0.3 mg/kg",61.7 mL/min/kg

# For quick reference, copied from above:
SMILES,assay,test system,setting,clearance
OCc1ccc(-c2nn(Cc3ccccc3)c3ccccc23)o1,,"male CD1 mouse, plasma","intravenous, 5 mg/kg",77.9 mL/min/kg
C=CC(=O)Nc1cc(Nc2nccc(Nc3cc(Cl)c(F)cc3C(C)(C)O)n2)c(OC)cc1N1CC[C@@H](N(C)C)C1,two-compartment PK model,mouse,,7.33 mL/min
